# Published values gathered from unrelated publications.
# Lines come from different studies, so protocols differ. Numbers after ± are the reported error.
# Organism: Pseudomonas aeruginosa
SMILES,strain,dose,concentration,time,temperature,inhibition zone diameter [mm]
S=c1n(CN2CCN(c3ccccc3)CC2)nc(C23CC4CC(CC(C4)C2)C3)n1-c1ccccc1,IFO 3448,200 µg/disc,,24 h,37 °C,10
Cc1cc(O)c2c(c1)C(=O)c1cc3oc(=O)cc(-c4ccccc4)c3c(O)c1C2=O,MTCC 2453,100 µg/disc,,,,8
CCOC(=O)C1=C(C)NC2=C(C(=O)CC(C)(C)C2)C1c1ccc(OCC(=O)NN=Cc2cc(Br)c(O)c(Br)c2)cc1OCC(=O)NN=Cc1cc(Br)c(O)c(Br)c1 (stereo not drawn),DSM 50070,,concentration not given,24 h,37 °C,6.1 ± 0.01
CCN1CCN(Cn2nc(C34CC5CC(CC(C5)C3)C4)n(-c3ccccc3)c2=S)CC1,IFO 3448,200 µg/disc,,24 h,37 °C,< 10
CC(=NNC(=N)N)c1nnn(-c2ccc(C#CC3(O)CCCCC3)cc2)c1C,ATCC 10145,,concentration not given,,,21.7 ± 0.47
CO[C@H]1O[C@H](COC(c2ccccc2)(c2ccccc2)c2ccccc2)[C@@H](OS(=O)(=O)c2ccccc2)[C@H](OS(=O)(=O)c2ccccc2)[C@H]1OS(=O)(=O)c1ccccc1,,,concentration not given,,,17 ± 0.5
CC(=O)[O-].O.O.O.O.[Co+2].[O-]c1ccc(Br)cc1C=NCCN1CCOCC1,,20 µL of 100 µM per disc,,,,13
CCN(CC)CCn1nc(C23CC4CC(CC(C4)C2)C3)n(C)c1=S,IFO 3448,200 µg/disc,,24 h,37 °C,< 10
CCOC(=O)C1=C(C)NC2=C(C(=O)CC(C)(C)C2)C1c1ccc(OCC(=O)NN=Cc2cccc([N+](=O)[O-])c2)cc1OCC(=O)NN=Cc1cccc([N+](=O)[O-])c1 (stereo not drawn),DSM 50070,,concentration not given,24 h,37 °C,4.2 ± 0.3

# Repeated from above:
SMILES,strain,dose,concentration,time,temperature,inhibition zone diameter [mm]
CCOC(=O)C1=C(C)NC2=C(C(=O)CC(C)(C)C2)C1c1ccc(OCC(=O)NN=Cc2cccc([N+](=O)[O-])c2)cc1OCC(=O)NN=Cc1cccc([N+](=O)[O-])c1 (stereo not drawn),DSM 50070,,concentration not given,24 h,37 °C,4.2 ± 0.3
